Experimental data pooled from the literature.
Compare with care: the assays were run in different laboratories. Values after ≈ are worked out from the molar mass of the structure shown.
Organism: Streptococcus pneumoniae

Cc1ccc(S(=O)(=O)N2C(=O)CSC2c2ccc([N+](=O)[O-])cc2)cc1 (centres unmarked)  MIC (broth microdilution; ATCC 49619): 64 µg/mL (≈ 169 µM)
CC[C@H]1OC(=O)[C@H](C)[C@@H](O[C@H]2C[C@@](C)(OC)[C@@H](O)[C@H](C)O2)[C@H](C)[C@@H](O[C@@H]2O[C@H](C)C[C@H](N(C)C)[C@H]2O)[C@](C)(O)C[C@@H](C)CN(C)[C@H](C)[C@@H](O)[C@]1(C)O  sensitive strains (community-acquired pneumonia patients; Fine score 70 or more): 100%
Cc1ccc(S(=O)(=O)N2C(=O)CSC2c2ccc(F)cc2)cc1 (centres unmarked)  MIC (broth microdilution; ATCC 49619): 64 µg/mL (≈ 182 µM)
CC(=O)N[C@H]1[C@H]([C@H](O)[C@H](O)CO)OC(C(=O)O)=C[C@@H]1O  MBIC90 (biofilm formation; no inhibition up to value): > 50 µM
CC[C@H]1OC(=O)[C@H](C)[C@@H](O[C@H]2C[C@@](C)(OC)[C@@H](O)[C@H](C)O2)[C@H](C)[C@@H](O[C@@H]2O[C@H](C)C[C@H](N(C)C)[C@H]2O)[C@](C)(O)C[C@@H](C)C(=O)[C@H](C)[C@@H](O)[C@]1(C)O  sensitive strains (community-acquired pneumonia patients; Fine score below 70): 100%
CN(C)c1cc(CNCC(C)(C)C)c(O)c2c1C[C@H]1C[C@H]3[C@H](N(C)C)C(O)=C(C(N)=O)C(=O)[C@@]3(O)C(O)=C1C2=O  MIC (157E; 50% mouse serum): < 0.06 µg/mL
CC1(C)S[C@@H]2[C@H](NC(=O)[C@H](N)c3ccc(O)cc3)C(=O)N2[C@H]1C(=O)O  sensitive strains (community-acquired pneumonia patients; Fine score 70 or more): 100%
CC(=O)NC[C@H]1CN(c2ccc(N3CCOCC3)c(F)c2)C(=O)O1  MIC range (broth microdilution; clinical isolates): 0.25 to 1 µg/mL (≈ 0.741 to 2.96 µM)
Cc1ccc(C2SCC(=O)N2S(=O)(=O)c2ccc(C)cc2)cc1 (centres unmarked)  MIC (broth microdilution; ATCC 49619): > 256 µg/mL
CN(C)c1cc(NC(=O)CNC(C)(C)C)c(O)c2c1C[C@H]1C[C@H]3[C@H](N(C)C)C(O)=C(C(N)=O)C(=O)[C@@]3(O)C(O)=C1C2=O  MIC (157E; 50% mouse serum): < 0.06 µg/mL
O=C(CCc1ccccc1)C[C@@H]1C[C@@H](c2ccccc2)c2c(cc(/C=C/c3ccccc3)oc2=O)O1  MBIC90 (biofilm formation; no inhibition up to value): > 50 µM
